Published values from different studies.
Numbered parts are unrelated; each lists some results of a single study.

Set 1
Target: NUAK family SNF1-like kinase 2 (NUAK2, Homo sapiens, UniProt Q9H093)
UniProt Q9H093, sequence (whole entry, looked up): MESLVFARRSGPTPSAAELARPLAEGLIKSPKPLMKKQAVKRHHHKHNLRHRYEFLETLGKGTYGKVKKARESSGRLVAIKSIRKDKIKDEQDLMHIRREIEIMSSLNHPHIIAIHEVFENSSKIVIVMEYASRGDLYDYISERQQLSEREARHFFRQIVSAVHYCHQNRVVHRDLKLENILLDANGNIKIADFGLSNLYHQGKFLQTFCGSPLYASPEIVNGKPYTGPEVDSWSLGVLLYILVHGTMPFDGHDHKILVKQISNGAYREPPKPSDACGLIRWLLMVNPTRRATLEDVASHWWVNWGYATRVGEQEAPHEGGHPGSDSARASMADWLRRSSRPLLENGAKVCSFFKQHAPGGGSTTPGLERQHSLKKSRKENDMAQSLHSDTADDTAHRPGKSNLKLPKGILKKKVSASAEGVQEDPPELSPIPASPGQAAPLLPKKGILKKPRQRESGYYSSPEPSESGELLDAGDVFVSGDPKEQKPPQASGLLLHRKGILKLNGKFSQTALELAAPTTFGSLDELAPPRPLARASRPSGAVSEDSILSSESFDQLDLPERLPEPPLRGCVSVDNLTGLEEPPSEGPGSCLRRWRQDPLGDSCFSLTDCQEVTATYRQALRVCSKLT
Effect on: enzyme activity
Action: inhibitor
Concentration: 0.5 µM
Baseline: control
Structure (SMILES)	remaining activity
c1ccc(-c2cnc(Nc3ccc(OCCN4CCCC4)cc3)s2)cc1	107%
CCN(CC)C(=O)c1ccc(Nc2nc(OCC3CCCCC3)c3[nH]cnc3n2)cc1	23.1%
N#C/C(=C\c1ccc(O)c(O)c1)C(=O)NCc1ccccc1	131%
COc1cc2c(cc1OC)-c1[nH]nc(Nc3cccc(F)c3)c1C2	94.6%
O=C1c2ccccc2-c2n[nH]c3cccc1c23	80.7%
O=C(NC(NC(=S)Nc1ccc(F)c([N+](=O)[O-])c1)C(Cl)(Cl)Cl)C(c1ccccc1)c1ccccc1 (stereo not shown)	108%
C[C@@H]1CCN(C(=O)CC#N)C[C@@H]1N(C)c1ncnc2[nH]ccc12	80.3%
CN([C@@H](Cc1ccc(OS(=O)(=O)c2cccc3cnccc23)cc1)C(=O)N1CCN(c2ccccc2)CC1)S(=O)(=O)c1cccc2cnccc12	88.7%
COc1cc2ncnc(Nc3ccc(O)c(Br)c3)c2cc1OC	88.3%
Cn1nc2c3c(cccc31)C(=O)c1ccccc1-2	85.7%
O=C(Nc1cccc(Nc2nccc(Nc3cccc(C(F)(F)F)c3)n2)c1)C1CC1	94.3%
CN(C)C[C@H]1CCn2c(c(C3=C(c4cn(C)c5ccccc45)C(=O)NC3=O)c3ccccc32)C1	121%
O=c1cc(-c2cccc3c2Sc2ccccc2S3)oc(N2CCOCC2)c1	109%
CCOc1nc(NC(=O)Cc2cc(OC)ccc2OC)cc(N)c1C#N	72%
Nc1cccc(-c2cc3c(Oc4cccc(O)c4)ncnc3[nH]2)c1	90.3%
CCN(CC)CCNC(=O)c1c(C)[nH]c(/C=C2\C(=O)Nc3ccc(F)cc32)c1C	65%
Cc1cc2ncc(-c3ccccc3)nc2cc1C	124%
N#Cc1c(NC(=O)c2cccc3ccccc23)sc2c1CCCC2	76.7%
Cc1cn(-c2cc(NC(=O)c3ccc(C)c(Nc4nccc(-c5cccnc5)n4)c3)cc(C(F)(F)F)c2)cn1	101%
Ic1cccc(CSc2nnc(-c3ccncc3)o2)c1	98.9%
c1ccc(-c2[nH]ncc2-c2ccnc3ccccc23)nc1	135%
COc1cc2ncnc(Nc3cccc(Cl)c3)c2cc1OC	142%
Cc1nc2cc3nc(-c4cccs4)cnc3cc2n1C	96.7%
O=C1C(Cl)=C(N2C(=O)CCC2=O)C(=O)c2ccccc21	86.7%
CCN(CC)CCNC(=O)c1c(C)[nH]c(/C=C2\C(=O)Nc3ccc(Cl)cc32)c1C	70.7%

Set 2
Species: human
Sample: microsomes or S9
Concentration: 2 µM
Time: 0.5 h
Compound	remaining compound [%]
c1ccc2c(-c3cn4c5ccccc5n(CCN5CCCCC5)c4n3)cccc2c1	2.84
O=C(O)c1ccc(Nc2nc(-c3ccc(Cl)cc3)cs2)cc1	86.9
O=C1c2ccccc2CN1C(c1cccc(F)c1)c1nc2cncnc2[nH]1 (stereo not shown)	62.1
Cc1nc(C)c2c(C)c(CNCC(C)(C)N3CCOCC3)sc2n1	40.7
c1ccc(-c2ccc3c(C4CCCC4)cncc3c2)cc1	19.3
CC1CCCC(C)C1NC(=O)Nc1cc(C#N)cn1C(C)(C)C (stereo not shown)	15.8
O=c1cc(CSC2CCCCC2)nc2sc3c(n12)CCCC3	0.109
COc1cc(Cl)c(NC(=O)c2cc(S(=O)(=O)N3CCCCC3)c[nH]2)c(OC)c1	5.61
COc1cnc(CN2CCCCC2c2ccc(CN(C)C)cc2)cc1O (stereo not shown)	74.4
Cc1nnc2n1CC1CCC(C2)N1C(=O)c1cccc2[nH]ccc12 (stereo not shown)	98.7
N#Cc1nc(-c2ccc(Br)o2)oc1N1CCC(C(=O)Nc2cnccc2O)CC1	50.8
Cc1c(O)ccc2c(CSc3n[nH]c4nc5ccccc5n34)cc(=O)oc12	3.4
CN1C[C@H](NC(=O)CC2=C(c3ccccc3)CCC2=O)C[C@H]1C(=O)O	> 100

Set 3
Target: Sigma non-opioid intracellular receptor 1 (SIGMAR1, Homo sapiens, UniProt Q99720)
UniProt Q99720, sequence (whole entry, looked up): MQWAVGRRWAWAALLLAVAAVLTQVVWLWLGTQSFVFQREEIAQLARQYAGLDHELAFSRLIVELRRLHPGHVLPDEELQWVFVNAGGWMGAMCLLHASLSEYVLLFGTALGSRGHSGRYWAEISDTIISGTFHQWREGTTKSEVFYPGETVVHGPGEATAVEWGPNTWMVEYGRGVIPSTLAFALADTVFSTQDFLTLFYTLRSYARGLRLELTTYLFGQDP
Effect on: binding
Method: radioligand binding
Concentration: 10 µM
Structure (SMILES)	inhibition [%]
Cc1c[nH]c2nccc(Oc3c(F)cc(Nc4cc(Cl)nc(N)n4)cc3F)c12	54.8
Nc1c(C(=O)NCc2ccc(C(=O)NCCCC3CCCCC3)cc2)cnn1-c1ccccc1	45.1
COc1cc(-c2cn(C3CCc4ccccc4N(CC(F)(F)F)C3=O)nn2)ccc1-n1ccc(C)n1 (stereo not shown)	23.2
Cc1nc(C2CCN(C(=O)c3ccc(OC(F)(F)F)cc3N)CC2)c2ncc(N3CCN(C)CC3)cc2n1	72.7
O=C(O)c1cc(-c2ccc(C3CCNCC3)cc2)c2ccc(-c3ccc(C(F)(F)F)cc3)cc2c1	84.9
CCCOc1ccc([C@H]2[C@H](C(=O)O)[C@@H](c3ccc4c(c3)OCO4)CN2CC(=O)Nc2c(CC)cccc2CC)cc1	4.29
C[C@@]1(Cc2ccc(C#N)cc2)C(=O)N(c2cc(Cl)cc(Cl)c2)c2ncc(C(=O)NC3(c4nc(C5CCC5)no4)CC3)n21	-16.2
O=C1CCc2cc(Nc3cc(OC4CCOCC4)c([N+](=O)[O-])cc3Cl)ccc2N1	11.7
O=C1c2ccc(Nc3ccc(F)cc3F)cc2CCc2ccc(OC[C@H](O)CO)cc21	48.5
C[C@H](NC(=O)c1cnc2n1[C@](C)(Cc1ccc(C#N)cc1)C(=O)N2c1cc(Cl)c(F)c(Cl)c1)C(=O)NC1(c2ccccn2)CC1	-6.44
COc1nc2ccc([C@@](O)(c3ccccc3)C3CCN(C(C)=O)CC3)cc2c(Cl)c1Cc1ccc(-n2cccn2)cc1	102
CNC(=O)Nc1ccc2c(c1)[C@]1(CC2)OC(=O)N(CC(=O)N(Cc2ccc(F)cc2)[C@@H](C)C(F)(F)F)C1=O	17.7
Cc1c(NC(=O)c2cc(C(N)=O)nc3cc(F)ccc23)c(C(F)(F)F)nn1Cc1ccc(C(C)(C)C)cc1	6.28
CN([C@@H]1CCc2c(CC(=O)O)c3cc(S(C)(=O)=O)ccc3n2C1)S(=O)(=O)c1ccc(F)cc1	-13.9

Set 4
Compound: CC(=O)N[C@@H](Cc1c[nH]c2ccccc12)C(=O)N[C@@H](CCC(=O)C=[N+]=[N-])C(=O)OC(C)C
Species: mouse, EL4 tumour-bearing
Sample: EL4 tumour
Dose: dose not given
Baseline: vehicle
refers to	log2 fold change
alpha-tocotrienol	0.085
beta-alanine	0.289
galacturonate 1-phosphate	0.12
N-acetylvaline	0.0342
cytidine	0.048
gamma-glutamylisoleucine*	-0.123
4-guanidinobutanoate	0.0497
7-methylguanine	-0.624
gamma-tocopherol/beta-tocopherol	0.482

Some of these lines once more (set 1):
Structure (SMILES)	remaining activity
O=C(Nc1cccc(Nc2nccc(Nc3cccc(C(F)(F)F)c3)n2)c1)C1CC1	94.3%
CCN(CC)CCNC(=O)c1c(C)[nH]c(/C=C2\C(=O)Nc3ccc(Cl)cc32)c1C	70.7%
CN([C@@H](Cc1ccc(OS(=O)(=O)c2cccc3cnccc23)cc1)C(=O)N1CCN(c2ccccc2)CC1)S(=O)(=O)c1cccc2cnccc12	88.7%
COc1cc2c(cc1OC)-c1[nH]nc(Nc3cccc(F)c3)c1C2	94.6%
c1ccc(-c2cnc(Nc3ccc(OCCN4CCCC4)cc3)s2)cc1	107%
CCN(CC)CCNC(=O)c1c(C)[nH]c(/C=C2\C(=O)Nc3ccc(F)cc32)c1C	65%
C[C@@H]1CCN(C(=O)CC#N)C[C@@H]1N(C)c1ncnc2[nH]ccc12	80.3%
COc1cc2ncnc(Nc3ccc(O)c(Br)c3)c2cc1OC	88.3%
O=C1c2ccccc2-c2n[nH]c3cccc1c23	80.7%
